Published values from different studies.
Compare with care: the assays were run in different laboratories. ± marks the error that the study gave. ≈ marks a conversion by molar mass, not a printed value.

SMILES | tested on | test | system | conditions | how to read | endpoint | result
NC1CC1c1ccc(NC(=O)C(Cc2ccccc2)NC(=O)OCc2ccccc2)cc1 (stereo not drawn) | MV4-11 | – | – | concentration not given | – | growth arrest | ~50%
CC[C@H](C)[C@@H]1NC(=O)[C@@H]2CCCN2C(=O)[C@H](CC(C)C)NC(=O)[C@H](CC(C)C)NC(=O)CNC(=O)[C@@H](NC(=O)[C@@H](NC(=O)[C@H](CC(=O)O)NC(=O)CNC(=O)[C@@H](NC(=O)[C@H](C)NC(=O)CNC(=O)[C@H](CCCCN)NC(=O)[C@H](CC(C)C)NC(=O)[C@H](CC(C)C)NC(=O)[C@H](CCCCN)NC(=O)CNC(=O)[C@@H](NC(=O)[C@@H](N)CC(C)C)C(C)C)C(C)C)C(C)C)CSSC[C@@H](C(=O)O)NC1=O | – | RNA-seq, item: Ly6c2 mRNA | mouse traumatic brain injury, frontal cortex and hippocampus | dose not given | relative to: TBI plus compound vs TBI | log2 fold change | -4.02
CC(=O)c1c(C)c2cnc(Nc3ccc(C4CCN(CCS(C)(=O)=O)CC4)cn3)nc2n(C2CCCC2)c1=O | – | tumour growth | mouse, MDA-MB-435S xenograft | oral, 20 mg/kg twice daily, 25 days | – | T/C | 89%
COc1cc(CCC[P+](c2ccccc2)(c2ccccc2)c2ccccc2)c(OC)c2c1OCO2.[I-] | HOP-62 | SRB | – | – | – | GI50 | -5.54 log M
CS(=O)(=O)CCCn1c(Cn2c(=O)n(CC(F)(F)F)c3ccncc32)cc2cc(Cl)ccc21 | respiratory syncytial virus | RT-qPCR | hospitalized infants 1-24 months, nasal swab | oral, 8 mg/kg daily, day 5, cohort 6-24 months | relative to: placebo | LS mean difference vs placebo | 0.4 log10 copies/mL
COc1c(CCC[P+](c2ccccc2)(c2ccccc2)c2ccccc2)cc2c(c1OC)OCO2.[I-] | EKVX | SRB | – | – | – | GI50 | -5.41 log M
CC[C@H](C=C[C@@H](C)[C@H]1CC[C@H]2[C@@H]3CCC4=CC(=O)CC[C@]4(C)[C@H]3CC[C@]12C)C(C)C | Leishmania mexicana | – | mouse C57BL/6 bone marrow-derived macrophages, intracellular amastigotes | concentration not given, 48 h | – | antileishmanial activity | inactive
CO/C=C(/C(=O)OC)c1ccccc1Oc1cc(Oc2ccccc2C#N)ncn1 | Fusarium graminearum | fungal growth, inhibitor | – | – | – | EC50 | 20.2 ± 1.39 µg/mL (≈ 50.1 µM)
CC[C@H](C)[C@H](NC(=O)[C@H](C)NC(=O)[C@H](CCCCN)NC(=O)[C@H](CC(C)C)NC(=O)[C@H](C)NC(=O)[C@@H](NC(=O)[C@H](Cc1c[nH]cn1)NC(=O)[C@H](CC(C)C)NC(=O)[C@@H](NC(=O)[C@@H](NC(=O)[C@H](CCCCN)NC(=O)[C@H](C)NC(=O)[C@H](C)NC(=O)[C@H](CO)NC(=O)[C@H](CCCCN)NC(=O)[C@H](Cc1ccccc1)NC(=O)[C@@H](NC(=O)[C@H](CCCCN)NC(=O)[C@H](CC(C)C)NC(=O)[C@H](Cc1ccccc1)NC(=O)[C@H](CO)NC(=O)[C@H](CCCCN)NC(=O)[C@H](Cc1c[nH]c2ccccc12)NC(=O)[C@H](CCCCN)NC(C)=O)[C@@H](C)O)[C@@H](C)O)C(C)C)[C@@H](C)O)C(=O)N[C@@H](CO)C(=O)N[C@@H](CO)C(N)=O | Acinetobacter baumannii | – | – | 33 strains | – | MBC90 | 8 µg/mL (≈ 2.73 µM)

Some of these lines once more:
SMILES | tested on | test | system | conditions | how to read | endpoint | result
COc1cc(CCC[P+](c2ccccc2)(c2ccccc2)c2ccccc2)c(OC)c2c1OCO2.[I-] | HOP-62 | SRB | – | – | – | GI50 | -5.54 log M
